# Measured values of several laboratories.
# Parts stem from different laboratories: compare values within a part only.

# Series 1
# Target: Centromere-binding protein 1, full length, N-terminal tag (CBF1, Saccharomyces cerevisiae, UniProt P17106, residues 1-351)
# Chain of UniProt P17106 (whole entry, looked up): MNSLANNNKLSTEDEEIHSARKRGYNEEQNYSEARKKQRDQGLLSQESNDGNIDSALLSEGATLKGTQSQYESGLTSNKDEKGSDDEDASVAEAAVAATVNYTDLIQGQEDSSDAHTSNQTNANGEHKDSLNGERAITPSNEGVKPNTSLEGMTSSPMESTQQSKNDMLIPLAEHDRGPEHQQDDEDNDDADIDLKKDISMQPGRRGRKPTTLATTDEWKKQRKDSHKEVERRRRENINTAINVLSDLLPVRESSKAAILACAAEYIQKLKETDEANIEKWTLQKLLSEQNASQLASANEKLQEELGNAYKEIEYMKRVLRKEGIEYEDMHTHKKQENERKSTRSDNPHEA
# Method: protein-binding microarray
# Molecule type: double-stranded DNA, one strand shown
# Sample: in vitro
# Tested at: 0.8 µM
# Notes: whole 60-bp probe, no competitor
# Reading: higher = stronger binding
# All sequences stand within: … GTCTTGATTCGCTTGACGCTGCTG
Oligonucleotide,fluorescence intensity [a.u.]
CCTAACTACTATAAAATCGTGTCATAGCTTCGTACA,499
GAATGGGCATCATAGCATGTGGTACTAAACCCTTAG,650
CTAGCGTGACATCAGTATGCGCTTTGGATGTTTTTC,558
CTAGCGATCGTTTATCACGACAAGCCCAATTTTTTC,552
GAATTTGAATATATACGCCTGATGACGTACGTTTAG,516
GAACGCATAGTGTGTCACCAAAGGTTGAGAGAATAG,570
GAATTGATTTGATCCCCCGTGGATTTTGAAAAATAG,564
GAATGCGGAAGCTATCACGCGATAACTAGGTACTAG,1040
GAAAGGTAACTACGTGACACGAACCAAGTCATCTAG,791
CTAATAATATAAACAAACGTGCGTATGCAAGACTTC,613
GAAATTTTTCATTCTGATGTCATACGACTTTTTTAG,596
GAATGAAGGCGAGATCTCATGATAGTTTTCTAATAG,529
GAACCGTAGGAAAGTTACCAGGTGAATTTAAATTAG,536
CTAGAGATAGTCTCAGGTGTAGTGGAAGCTGAATTC,537
GAATAGTTCGGTGCTCGTGACAAACCTTTTTCCTAG,1380
CTACACCCGCGGGTCGTGATCACGATTCAGCACTTC,3020

# Series 2
# Target: Sal-like protein 4, full length isoform B (SALL4, Homo sapiens, UniProt Q9UJQ4-2, residues 1-616)
# Method: universal PBM
# Molecule type: double-stranded DNA, one strand shown
# Sample: in vitro
# Tested at: not given
# Notes: 8-mer, flanks averaged, mean of replicates
# Reading: higher = stronger binding
Oligonucleotide,E-score
GTCGAACA,-0.0774
GAAGGAAA,0.011
AGCCATAC,-0.0914
CCGAAACC,-0.277
AGTAGAAT,0.222
AAATCACG,0.0965
AGACTACG,-0.165
GATCGGGA,-0.227
AACTTGCA,0.0904
GACCACGA,-0.233
ATTGTGTA,0.199
ACGAATGA,0.136
GCCCAAAC,-0.178
AGACGATG,0.00755

# Single results of other studies
Molecule,target,assay,system,setting,scale,endpoint,value
GGAGTGCGCACTCC (dsDNA),"KAT6A 1-85 R79A (Homo sapiens, UniProt Q92794)",ITC,"double-stranded DNA, one strand shown",,,binding,binds
"PhoQ, residues 284 288 289 292 302 303 SQSLSM","PhoP, residues 12 14 15 18 19 TPLRH (Escherichia coli, UniProt P23836)","Sort-seq, item: YFP reporter",E. coli,"PhoQ-PhoP variant library, added: 10 µM Mg2+","baseline: high Mg2+ state, higher = stronger signaling",fold induction,1.08

# Excerpt of the above (series 1):
Oligonucleotide,fluorescence intensity [a.u.]
GAATGGGCATCATAGCATGTGGTACTAAACCCTTAG,650
CTAGCGTGACATCAGTATGCGCTTTGGATGTTTTTC,558
CTAGCGATCGTTTATCACGACAAGCCCAATTTTTTC,552
GAATTTGAATATATACGCCTGATGACGTACGTTTAG,516
